Experimental data pooled from the literature.
Each line is one published result; not all experiments were run side by side. Numbers after ± are the reported error. In brackets after ≈: the same amount, converted by molar mass.

Structure (SMILES)	organism	assay	system	setting	scale	measurement	value
CC(Oc1ccc(C(=O)c2ccc(F)cc2)cc1)C(=O)N1CCc2ccccc21 (centres unmarked)	Plasmodium falciparum	parasite growth	Dd2	–	–	EC50	282 ± 39 nM
CN1CCC(=C2c3ccccc3CC(=O)c3sccc32)CC1	Plasmodium falciparum	–	3D7	–	–	IC50	3160 nM
CNC(=O)c1cc(Cl)cc(C)c1NC(=O)c1cc(Br)nn1-c1ncccc1Cl	Spodoptera litura	leaf-dip	third instar larvae	6.25 ppm, 24 h	–	mortality	10%
O=S(=O)(c1cccc2c(Cl)cccc12)N1CCCNCC1	Plasmodium falciparum	–	GB4	–	–	IC50	3980 nM
CC(C)[C@H]1NC(=O)[C@H](Cc2ccccc2)NC(=O)CNC(=O)[C@@H](Cc2ccccc2)NC(=O)[C@H](CCC(N)=O)NC(=O)[C@@H](CCCN)NC1=O	Acanthamoeba castellanii	–	–	trophozoites	–	IC90	> 16 µg/mL
OC(c1cc(C(F)(F)F)nc2c(C(F)(F)F)cccc12)C1CCCCN1 (centres unmarked)	Plasmodium falciparum	parasite growth, SYBR Green	3D7 wild type	72 h	–	EC50	17.6 ± 0.49 nM
CCc1cccc(N(C)C(=N)Nc2cccc3ccccc23)c1	Plasmodium falciparum	–	GB4	–	–	IC50	12600 nM
CC(=O)c1c(Cc2ccccc2Cl)c[nH]c1C	Plasmodium falciparum	parasite growth	Dd2	–	–	EC50	151 ± 45 nM
CC(C)[C@@H]1NC(=O)[C@@H](CCCCN)NC(=O)[C@H](CCCN)NC(=O)[C@@H](CC(=O)O)NC(=O)[C@H](C)NC(=O)[C@H](Cc2c[nH]c3ccccc23)NC(=O)[C@@H](Cc2ccccc2)NC1=O	Naegleria fowleri	–	–	trophozoites	–	IC90	> 16 µg/mL
Cc1cc(=O)oc2c1ccc1oc(C(O)c3ccc(Cl)cc3)c(C)c12 (centres unmarked)	Plasmodium falciparum	parasite growth, SYBR Green	–	72 h	relative to: 3D7-E182D over 3D7	EC50 ratio	4.2
O=C1N=c2cc(Cl)c(Cl)cc2=NC1=O	Plasmodium falciparum	–	W2	–	–	IC50	3160 nM
C[C@H]1NC(=O)[C@H](Cc2c[nH]c3ccccc23)NC(=O)[C@@H](Cc2ccccc2)NC(=O)[C@@H](CCCN)NC(=O)[C@H]([C@@H](C)O)NC(=O)[C@@H](CCCN)NC(=O)[C@H](Cc2c[nH]c3ccccc23)NC(=O)[C@@H](C)NC1=O	Naegleria fowleri	–	–	trophozoites	–	IC90	> 16 µg/mL
Cc1ccc(N2CCc3c(-c4cc5cccnc5nc4C)cc(C)nc32)c(Cl)c1	Plasmodium falciparum	parasite growth, SYBR Green	3D7 wild type	72 h	–	EC50	291 ± 80 nM
CC(C)[C@H]1NC(=O)[C@H](Cc2ccccc2)NC(=O)CNC(=O)[C@@H](Cc2c[nH]c3ccccc23)NC(=O)[C@H](CCCCN)NC(=O)[C@@H](CCCN)NC1=O	Acanthamoeba castellanii	–	–	trophozoites	–	IC50	12.1 µg/mL
CCN(CC)CC#Cc1ccc2[nH]c(C)c(Cl)c(=O)c2c1	Plasmodium falciparum	parasite growth, SYBR Green	–	72 h	relative to: 3D7-E182D over 3D7	EC50 ratio	3.1
CCN(CC)CCOCCOC(=O)C1(c2ccccc2)CCCC1	Plasmodium falciparum	–	GB4	–	–	IC50	631 nM
NCCCC[C@@H]1NC(=O)[C@@H](CCCN)NC(=O)[C@@H](Cc2ccccc2)NC(=O)[C@H](Cc2ccccc2)NC(=O)CNC1=O	Acanthamoeba castellanii	–	–	trophozoites	–	IC90	> 16 µg/mL
COC(=O)c1c(-c2cc(OC)c(OC)c(OC)c2)c2ccc(OCc3ccccn3)cc2c(=O)n1-c1ccc(N)cc1	Plasmodium falciparum	–	7G8	–	–	IC50	794 nM
C[C@@H](O)[C@@H]1NC(=O)[C@H](Cc2ccccc2)NC(=O)[C@@H](Cc2ccccc2)NC(=O)[C@H]([C@@H](C)O)NC(=O)[C@@H](CCCN)NC(=O)[C@H](CCCNC(=N)N)NC(=O)[C@@H](CCCN)NC1=O	Acanthamoeba castellanii	–	–	trophozoites	–	IC50	> 16 µg/mL
OCCN1CCN(CC/C=C2/c3ccccc3Sc3ccc(C(F)(F)F)cc32)CC1	Plasmodium falciparum	–	HB3	–	–	IC50	3980 nM
CC(C)[C@@H]1NC(=O)[C@@H](CCCCN)NC(=O)[C@H]([C@@H](C)O)NC(=O)[C@@H](CCCCN)NC(=O)[C@H](Cc2c[nH]c3ccccc23)NC(=O)[C@@H](C)NC(=O)[C@@H](C(C)C)NC(=O)[C@@H](C)NC(=O)[C@H](Cc2c[nH]c3ccccc23)NC(=O)[C@@H](Cc2c[nH]c3ccccc23)NC1=O	Acanthamoeba castellanii	–	–	trophozoites	–	IC50	15.4 µg/mL
CC[C@H](C)[C@H](NC(=O)[C@H](C)NC(=O)[C@H](CCCCN)NC(=O)[C@H](CC(C)C)NC(=O)[C@H](C)NC(=O)[C@@H](NC(=O)[C@H](Cc1c[nH]cn1)NC(=O)[C@H](CC(C)C)NC(=O)[C@@H](NC(=O)[C@@H](NC(=O)[C@H](CCCCN)NC(=O)[C@H](C)NC(=O)[C@H](C)NC(=O)[C@H](CO)NC(=O)[C@H](CCCCN)NC(=O)[C@H](Cc1ccccc1)NC(=O)[C@@H](NC(=O)[C@H](CCCCN)NC(=O)[C@H](CC(C)C)NC(=O)[C@H](Cc1ccccc1)NC(=O)[C@H](CO)NC(=O)[C@H](CCCCN)NC(=O)[C@H](Cc1c[nH]c2ccccc12)NC(=O)[C@H](CCCCN)NC(C)=O)[C@@H](C)O)[C@@H](C)O)C(C)C)[C@@H](C)O)C(=O)N[C@@H](CO)C(=O)N[C@@H](CO)C(N)=O	Klebsiella pneumoniae	–	ATCC 700603 (ESBL)	–	–	MBC90	8 µg/mL (≈ 2.73 µM)
COc1nc(NCC(C)C)nc(Oc2ccc(=O)n(Cc3ccccc3)n2)n1	Plasmodium falciparum	parasite growth, SYBR Green	–	72 h	relative to: 3D7-E182D over 3D7	EC50 ratio	14
C[C@@H](O)[C@@H]1NC(=O)[C@H](Cc2ccccc2)NC(=O)[C@@H](Cc2ccccc2)NC(=O)[C@H]([C@@H](C)O)NC(=O)[C@@H](CCCCN)NC(=O)[C@H](CC(=O)O)NC1=O	Naegleria fowleri	–	–	trophozoites	–	IC50	> 16 µg/mL
CC(COc1ccccc1)N(CCCl)Cc1ccccc1 (centres unmarked)	Plasmodium falciparum	–	D10	–	–	IC50	10000 nM
CCn1c(-c2ccccc2)cc2nnc3ccccc3c21	Plasmodium falciparum	parasite growth, SYBR Green	3D7 DHODH E182D	72 h	–	EC50	632 ± 120 nM

For quick reference, copied from above:
Structure (SMILES)	organism	assay	system	setting	scale	measurement	value
CC(C)[C@H]1NC(=O)[C@H](Cc2ccccc2)NC(=O)CNC(=O)[C@@H](Cc2c[nH]c3ccccc23)NC(=O)[C@H](CCCCN)NC(=O)[C@@H](CCCN)NC1=O	Acanthamoeba castellanii	–	–	trophozoites	–	IC50	12.1 µg/mL
CCN(CC)CC#Cc1ccc2[nH]c(C)c(Cl)c(=O)c2c1	Plasmodium falciparum	parasite growth, SYBR Green	–	72 h	relative to: 3D7-E182D over 3D7	EC50 ratio	3.1
